Assay results gathered from unrelated publications.
Lines come from different studies, so protocols differ. pIC50: −log10 of the molar value.
GBA2: Beta-glucosidase (GBA2, Homo sapiens, UniProt Q9HCG7)
UniProt Q9HCG7, sequence (whole entry, looked up): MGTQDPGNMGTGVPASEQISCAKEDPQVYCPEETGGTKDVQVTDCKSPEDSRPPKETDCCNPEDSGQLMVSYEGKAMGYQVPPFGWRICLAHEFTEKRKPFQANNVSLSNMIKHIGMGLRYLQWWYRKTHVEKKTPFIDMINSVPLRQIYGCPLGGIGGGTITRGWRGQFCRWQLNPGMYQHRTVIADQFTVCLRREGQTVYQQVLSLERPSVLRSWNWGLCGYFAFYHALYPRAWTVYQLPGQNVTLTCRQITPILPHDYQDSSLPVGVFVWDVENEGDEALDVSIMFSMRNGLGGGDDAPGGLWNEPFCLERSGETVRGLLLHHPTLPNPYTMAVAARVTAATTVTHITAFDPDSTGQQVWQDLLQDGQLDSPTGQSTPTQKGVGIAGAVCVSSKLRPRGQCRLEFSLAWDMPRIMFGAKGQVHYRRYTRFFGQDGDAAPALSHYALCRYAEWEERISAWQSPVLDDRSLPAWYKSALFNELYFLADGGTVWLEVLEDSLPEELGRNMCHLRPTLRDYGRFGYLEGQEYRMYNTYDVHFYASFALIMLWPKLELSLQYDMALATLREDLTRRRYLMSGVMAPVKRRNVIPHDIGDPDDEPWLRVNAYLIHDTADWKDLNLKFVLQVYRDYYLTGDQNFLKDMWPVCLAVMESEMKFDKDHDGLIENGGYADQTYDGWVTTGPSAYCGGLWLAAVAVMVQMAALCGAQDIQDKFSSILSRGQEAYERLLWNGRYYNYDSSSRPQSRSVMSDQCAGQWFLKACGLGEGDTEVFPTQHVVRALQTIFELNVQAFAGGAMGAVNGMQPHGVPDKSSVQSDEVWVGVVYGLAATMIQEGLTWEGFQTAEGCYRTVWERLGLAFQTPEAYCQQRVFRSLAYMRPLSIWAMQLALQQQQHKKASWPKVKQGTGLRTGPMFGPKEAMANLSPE
PPARA ligand-binding domain: Peroxisome proliferator-activated receptor alpha, ligand-binding domain (PPARA, Homo sapiens, UniProt Q07869)
UniProt Q07869, sequence (whole entry, looked up): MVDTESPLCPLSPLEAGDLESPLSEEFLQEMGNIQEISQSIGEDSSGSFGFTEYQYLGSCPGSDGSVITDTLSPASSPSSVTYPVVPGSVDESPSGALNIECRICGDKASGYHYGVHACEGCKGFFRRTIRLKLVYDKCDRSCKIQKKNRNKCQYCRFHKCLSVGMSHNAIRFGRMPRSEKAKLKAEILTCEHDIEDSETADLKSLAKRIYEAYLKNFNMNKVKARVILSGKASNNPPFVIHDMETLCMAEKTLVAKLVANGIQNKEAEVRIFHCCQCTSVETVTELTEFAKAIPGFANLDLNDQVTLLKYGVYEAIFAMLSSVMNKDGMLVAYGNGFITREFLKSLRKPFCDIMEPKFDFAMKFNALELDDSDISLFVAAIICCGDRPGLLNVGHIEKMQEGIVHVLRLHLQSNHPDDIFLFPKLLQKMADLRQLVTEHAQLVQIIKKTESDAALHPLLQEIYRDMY
Chymotrypsinogen A: Chymotrypsinogen A (Bos taurus, UniProt P00766)
PIK3CG: Phosphatidylinositol 4,5-bisphosphate 3-kinase catalytic subunit gamma isoform (PIK3CG, Homo sapiens, UniProt P48736)
UniProt P48736, sequence (whole entry, looked up): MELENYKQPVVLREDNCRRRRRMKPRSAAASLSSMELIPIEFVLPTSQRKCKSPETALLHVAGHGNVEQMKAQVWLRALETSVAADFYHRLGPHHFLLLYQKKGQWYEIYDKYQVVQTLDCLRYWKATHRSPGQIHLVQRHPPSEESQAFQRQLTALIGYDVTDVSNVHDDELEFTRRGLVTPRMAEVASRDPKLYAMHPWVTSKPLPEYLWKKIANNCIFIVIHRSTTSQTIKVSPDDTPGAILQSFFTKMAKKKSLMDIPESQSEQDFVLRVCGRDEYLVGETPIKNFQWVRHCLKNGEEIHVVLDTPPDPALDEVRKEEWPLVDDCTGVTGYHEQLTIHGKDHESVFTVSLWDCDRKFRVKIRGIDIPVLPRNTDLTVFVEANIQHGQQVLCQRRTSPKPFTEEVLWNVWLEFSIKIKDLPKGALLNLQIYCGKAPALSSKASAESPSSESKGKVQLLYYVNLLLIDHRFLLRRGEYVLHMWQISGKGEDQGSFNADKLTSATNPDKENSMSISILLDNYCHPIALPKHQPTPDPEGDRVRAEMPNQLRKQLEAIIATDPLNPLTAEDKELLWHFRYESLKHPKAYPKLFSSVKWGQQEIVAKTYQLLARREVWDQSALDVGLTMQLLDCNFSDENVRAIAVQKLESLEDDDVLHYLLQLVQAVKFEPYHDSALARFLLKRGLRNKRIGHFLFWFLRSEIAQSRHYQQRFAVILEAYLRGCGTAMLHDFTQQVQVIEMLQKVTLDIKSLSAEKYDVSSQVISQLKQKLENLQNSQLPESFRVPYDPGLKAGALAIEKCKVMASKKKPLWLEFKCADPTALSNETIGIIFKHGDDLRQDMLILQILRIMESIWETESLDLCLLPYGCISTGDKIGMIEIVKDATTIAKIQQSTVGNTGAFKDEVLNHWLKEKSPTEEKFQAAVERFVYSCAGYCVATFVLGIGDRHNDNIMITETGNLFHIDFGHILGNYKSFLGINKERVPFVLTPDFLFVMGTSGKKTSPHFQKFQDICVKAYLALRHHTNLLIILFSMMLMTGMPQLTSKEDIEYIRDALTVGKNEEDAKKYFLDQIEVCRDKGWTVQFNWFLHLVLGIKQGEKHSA
UniProt Q6PL18, sequence (whole entry, looked up): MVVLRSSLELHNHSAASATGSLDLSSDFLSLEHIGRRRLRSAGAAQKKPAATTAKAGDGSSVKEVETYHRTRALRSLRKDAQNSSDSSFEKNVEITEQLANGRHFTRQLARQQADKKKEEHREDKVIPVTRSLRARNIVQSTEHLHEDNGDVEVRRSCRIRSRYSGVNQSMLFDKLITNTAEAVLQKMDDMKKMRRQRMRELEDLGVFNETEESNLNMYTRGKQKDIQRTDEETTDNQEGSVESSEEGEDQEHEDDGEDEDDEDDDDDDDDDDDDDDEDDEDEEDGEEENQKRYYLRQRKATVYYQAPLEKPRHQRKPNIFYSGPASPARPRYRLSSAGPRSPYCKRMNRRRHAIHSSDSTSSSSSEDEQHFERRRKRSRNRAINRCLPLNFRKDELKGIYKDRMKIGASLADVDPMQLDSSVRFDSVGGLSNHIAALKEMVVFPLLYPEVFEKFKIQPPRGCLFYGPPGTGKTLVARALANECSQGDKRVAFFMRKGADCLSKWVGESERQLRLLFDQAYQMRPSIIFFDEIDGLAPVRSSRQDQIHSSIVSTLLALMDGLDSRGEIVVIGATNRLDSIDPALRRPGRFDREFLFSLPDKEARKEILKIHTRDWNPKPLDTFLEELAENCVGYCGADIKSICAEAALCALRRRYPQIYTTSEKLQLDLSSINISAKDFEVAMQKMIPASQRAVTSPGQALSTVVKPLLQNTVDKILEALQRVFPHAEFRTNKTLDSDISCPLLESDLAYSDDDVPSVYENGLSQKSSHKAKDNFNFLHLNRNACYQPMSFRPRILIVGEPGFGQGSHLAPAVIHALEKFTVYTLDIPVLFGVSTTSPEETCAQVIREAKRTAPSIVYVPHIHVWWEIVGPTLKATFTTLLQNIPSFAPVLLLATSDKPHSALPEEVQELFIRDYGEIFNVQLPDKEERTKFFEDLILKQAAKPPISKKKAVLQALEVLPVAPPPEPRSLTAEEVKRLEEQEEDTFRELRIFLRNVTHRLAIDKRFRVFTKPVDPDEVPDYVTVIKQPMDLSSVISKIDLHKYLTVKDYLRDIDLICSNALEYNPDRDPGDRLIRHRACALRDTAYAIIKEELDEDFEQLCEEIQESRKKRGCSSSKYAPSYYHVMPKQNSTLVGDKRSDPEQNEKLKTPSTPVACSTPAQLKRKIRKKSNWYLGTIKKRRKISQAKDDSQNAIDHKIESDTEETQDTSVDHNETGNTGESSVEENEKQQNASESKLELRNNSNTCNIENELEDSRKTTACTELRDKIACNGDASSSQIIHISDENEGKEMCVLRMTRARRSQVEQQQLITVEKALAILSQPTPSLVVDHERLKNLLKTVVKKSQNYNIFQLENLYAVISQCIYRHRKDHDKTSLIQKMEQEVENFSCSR
UniProt Q99436, sequence (whole entry, looked up): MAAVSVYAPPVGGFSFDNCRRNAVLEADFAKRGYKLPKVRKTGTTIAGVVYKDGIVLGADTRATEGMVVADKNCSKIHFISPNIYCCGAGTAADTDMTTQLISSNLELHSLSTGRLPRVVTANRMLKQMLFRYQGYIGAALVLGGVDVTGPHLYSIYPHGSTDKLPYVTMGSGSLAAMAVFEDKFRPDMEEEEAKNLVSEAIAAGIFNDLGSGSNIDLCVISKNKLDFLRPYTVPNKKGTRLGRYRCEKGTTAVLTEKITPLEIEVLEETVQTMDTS
UniProt Q15109, sequence (whole entry, looked up): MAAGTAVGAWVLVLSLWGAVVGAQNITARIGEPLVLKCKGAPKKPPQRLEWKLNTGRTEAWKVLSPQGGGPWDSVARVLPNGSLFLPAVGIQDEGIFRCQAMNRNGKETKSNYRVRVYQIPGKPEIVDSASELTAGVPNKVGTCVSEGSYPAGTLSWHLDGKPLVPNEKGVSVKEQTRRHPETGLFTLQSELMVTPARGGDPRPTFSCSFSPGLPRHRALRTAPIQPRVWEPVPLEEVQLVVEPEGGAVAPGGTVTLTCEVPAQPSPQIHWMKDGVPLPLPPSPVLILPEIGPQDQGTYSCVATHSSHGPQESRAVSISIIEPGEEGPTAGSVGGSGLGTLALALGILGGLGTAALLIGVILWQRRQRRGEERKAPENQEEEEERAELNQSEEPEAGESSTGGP
UniProt O14757, sequence (whole entry, looked up): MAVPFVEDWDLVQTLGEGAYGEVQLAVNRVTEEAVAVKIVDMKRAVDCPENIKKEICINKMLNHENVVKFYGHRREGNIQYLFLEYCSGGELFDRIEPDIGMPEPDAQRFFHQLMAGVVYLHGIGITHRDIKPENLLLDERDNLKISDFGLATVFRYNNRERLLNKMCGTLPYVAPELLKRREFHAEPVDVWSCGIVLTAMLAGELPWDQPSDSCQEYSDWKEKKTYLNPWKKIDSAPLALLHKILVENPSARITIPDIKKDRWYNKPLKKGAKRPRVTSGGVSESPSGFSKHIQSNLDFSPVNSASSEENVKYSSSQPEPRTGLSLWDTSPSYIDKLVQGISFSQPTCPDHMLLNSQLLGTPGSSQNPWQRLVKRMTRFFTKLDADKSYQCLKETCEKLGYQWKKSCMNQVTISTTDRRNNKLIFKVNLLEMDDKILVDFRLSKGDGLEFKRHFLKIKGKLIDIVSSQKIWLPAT

OC[C@H]1[C@@H](O)[C@H](O)[C@@H](O)CN1CCCCCOCc1ccccc1-c1ccccc1 — pIC50 (GBA2; inhibitor, 4MU-β-D-glucopyranoside; HEK293T homogenates overexpressing GBA2): 8.52
Cc1c(Cc2cccc(OC(C)(C)C(=O)O)c2)c2ccc(C(=O)NCc3ccc(C(C)(C)C)cc3)cc2n1CC1CCC1 — pIC50 (PPARA ligand-binding domain; reporter gene, luciferase reporter; HEK293T, Gal4-PPARα LBD): 6.60
CNC(=S)NCCCC[C@H](NS(=O)(=O)c1ccc(C(=O)NCc2cn(CCCNc3ccc([N+](=O)[O-])c4nonc34)nn2)cc1)C(=O)N[C@@H](CCCNC(=N)N)C(=O)N[C@@H](CC1CCCCC1)C(N)=O — pIC50 (SIRT2 (Homo sapiens, UniProt Q8IXJ6); enzyme activity, inhibitor, fluorescence): 6.89
O=C(NC1CCCCC1)C(C(F)(F)F)C(F)(F)F — pIC50 (Chymotrypsinogen A; enzyme activity, inhibitor, fluorescence): < 4.00
N#Cc1cnc(NC(=O)Nc2cc(Cl)ccc2C#N)cn1 — pIC50 (CHEK1 (Homo sapiens, UniProt O14757); enzyme activity, inhibitor): < 5.00
CN1CCCC1C(=O)NC(Cc1ccc(-n2cccn2)cc1)B(O)O (stereo not shown) — pIC50 (Proteasome subunit beta type-3/PSMB7 (Homo sapiens, UniProt P49720+Q99436); β2c trypsin-like activity, inhibitor; constitutive proteasome, together with: Ac-KQL-AMC): < 5.00
OC[C@@H]1[C@@H](O)[C@H](O)[C@@H](O)CN1CCCCCOCc1ccc(-c2ccc(F)nc2)cc1 — pIC50 (GBA2; inhibitor, 4MU-β-D-glucopyranoside; HEK293T homogenates overexpressing GBA2): 8.30
CNC(=O)C[C@H](Cc1ccc(C#N)cc1)NC(=O)c1cc(-c2ccc(CN[C@H](C)c3ccc(C)cc3)o2)ccc1Cl — pIC50 (ATPase family AAA domain-containing protein 2, bromodomain (ATAD2, Homo sapiens, UniProt Q6PL18); binding, inhibitor, AlphaScreen competition; His-tagged protein, together with: peptide, histone H4, tetra-acetylated): < 4.70
COc1ccc(CN2C3(NC(c4ccc(OC)cc4)C24C(=O)Nc2ccccc24)C(=O)Nc2ccccc23)cc1 (stereo not shown) — pIC50 (PIK3CG; enzyme activity, inhibitor, ADP detection): 7.33
Cc1cccc([C@H](C)NC(=O)c2ccc3c(Cc4cccc(OC(C)(C)C(=O)O)c4)c(C)n(C)c3c2)c1 — pIC50 (PPARA ligand-binding domain; reporter gene, luciferase reporter; HEK293T, Gal4-PPARα LBD): 3.80
COC1CN([C@H]2CC[C@H]([C@@]3(C)Oc4c(Cl)cc(C(=O)NCc5c(SC)cc(C)[nH]c5=O)c(C)c4O3)CC2)C1 — log2 fold change (RNA-seq, refers to: SERPINI1; human, whole blood; dose not given, 24 h; reference: pretreatment baseline): 1.39
CCN(CC)CC(=O)Nc1cccc(-n2cc(-c3ccc4ccc(-c5cn(-c6cccc(NC(=O)CN(CC)CC)c6)nn5)cc4c3)nn2)c1 — pIC50 (MAPK14 (Homo sapiens, UniProt Q16539); enzyme activity, inhibitor): < 5.00
Nc1ncc2c(n1)-c1c([nH]c3ccc(-c4ccc(F)cc4)cc13)CCC2 — pIC50 (PIP4K2C (Homo sapiens, UniProt Q8TBX8); target engagement in cells, BRET): 7.11
Cc1nc(N(C)c2ccc3c(c2)/C(=C/c2cn(C)c4ccccc24)C(=O)N3C)c2ccccc2n1 — pIC50 (PIK3CG; enzyme activity, inhibitor, ADP detection): 6.88
Cc1nn(-c2cccc(N)c2)c(=O)c2cnc(Nc3ccc(N4CCNCC4)cc3)nc12 — pIC50 (PAK3 (Homo sapiens, UniProt O75914); enzyme activity, inhibitor): 5.43
COc1c(Cl)cccc1NC(=O)C(C(F)(F)F)C(F)(F)F — pIC50 (Chymotrypsinogen A; enzyme activity, inhibitor, fluorescence): < 4.00
COc1ccccc1-c1ccc(COCCCCCN2C[C@H](O)[C@@H](O)[C@H](O)[C@H]2CO)cc1 — pIC50 (GBA2; inhibitor, 4MU-β-D-glucopyranoside; HEK293T homogenates overexpressing GBA2): 8.52
O=C(Nc1ccc(F)cc1)Nc1ccc(C2=NNC(c3ccc(NC(=O)Nc4ccc(Cl)cc4)cc3)C2)cc1 (stereo not shown) — pIC50 (AGER (Homo sapiens, UniProt Q15109)): < 4.00
Cc1ccc(S(=O)(=O)N2CC(NC(=O)c3ccccc3)C2=O)cc1 (stereo not shown) — pIC50 (Chymotrypsinogen A; enzyme activity, inhibitor, fluorescence): 3.66

Excerpt of the above:
CN1CCCC1C(=O)NC(Cc1ccc(-n2cccn2)cc1)B(O)O (stereo not shown) — pIC50 (Proteasome subunit beta type-3/PSMB7 (Homo sapiens, UniProt P49720+Q99436); β2c trypsin-like activity, inhibitor; constitutive proteasome, together with: Ac-KQL-AMC): < 5.00
OC[C@@H]1[C@@H](O)[C@H](O)[C@@H](O)CN1CCCCCOCc1ccc(-c2ccc(F)nc2)cc1 — pIC50 (GBA2; inhibitor, 4MU-β-D-glucopyranoside; HEK293T homogenates overexpressing GBA2): 8.30
CNC(=O)C[C@H](Cc1ccc(C#N)cc1)NC(=O)c1cc(-c2ccc(CN[C@H](C)c3ccc(C)cc3)o2)ccc1Cl — pIC50 (ATPase family AAA domain-containing protein 2, bromodomain (ATAD2, Homo sapiens, UniProt Q6PL18); binding, inhibitor, AlphaScreen competition; His-tagged protein, together with: peptide, histone H4, tetra-acetylated): < 4.70
